Published values of several laboratories.
Parts stem from different laboratories: compare values within a part only. “And” joins repeats or separate records; there may be more than shown.
Chain of UniProt Q00526 (whole entry, looked up): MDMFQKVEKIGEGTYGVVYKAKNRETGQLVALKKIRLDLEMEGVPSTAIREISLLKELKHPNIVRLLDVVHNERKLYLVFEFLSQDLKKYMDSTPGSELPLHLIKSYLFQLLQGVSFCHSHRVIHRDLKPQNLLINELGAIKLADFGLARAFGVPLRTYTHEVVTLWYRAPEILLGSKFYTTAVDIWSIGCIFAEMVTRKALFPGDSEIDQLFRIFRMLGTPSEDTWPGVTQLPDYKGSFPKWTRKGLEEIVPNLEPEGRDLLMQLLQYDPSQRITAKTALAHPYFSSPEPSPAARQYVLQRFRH
Chain of UniProt Q13163 (whole entry, looked up): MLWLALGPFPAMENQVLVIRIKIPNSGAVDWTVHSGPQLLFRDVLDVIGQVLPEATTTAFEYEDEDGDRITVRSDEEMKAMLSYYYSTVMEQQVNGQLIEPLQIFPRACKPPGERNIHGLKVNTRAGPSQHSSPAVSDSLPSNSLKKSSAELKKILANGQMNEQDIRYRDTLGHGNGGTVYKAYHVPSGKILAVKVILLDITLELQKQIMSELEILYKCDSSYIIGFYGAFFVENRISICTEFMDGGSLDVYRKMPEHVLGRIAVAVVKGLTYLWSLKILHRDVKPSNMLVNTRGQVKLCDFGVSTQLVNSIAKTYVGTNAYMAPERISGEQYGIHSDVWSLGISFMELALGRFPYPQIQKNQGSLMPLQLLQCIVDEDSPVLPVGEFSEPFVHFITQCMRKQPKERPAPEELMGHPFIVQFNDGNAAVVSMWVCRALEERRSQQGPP
Chain of UniProt Q96RG2 (whole entry, looked up): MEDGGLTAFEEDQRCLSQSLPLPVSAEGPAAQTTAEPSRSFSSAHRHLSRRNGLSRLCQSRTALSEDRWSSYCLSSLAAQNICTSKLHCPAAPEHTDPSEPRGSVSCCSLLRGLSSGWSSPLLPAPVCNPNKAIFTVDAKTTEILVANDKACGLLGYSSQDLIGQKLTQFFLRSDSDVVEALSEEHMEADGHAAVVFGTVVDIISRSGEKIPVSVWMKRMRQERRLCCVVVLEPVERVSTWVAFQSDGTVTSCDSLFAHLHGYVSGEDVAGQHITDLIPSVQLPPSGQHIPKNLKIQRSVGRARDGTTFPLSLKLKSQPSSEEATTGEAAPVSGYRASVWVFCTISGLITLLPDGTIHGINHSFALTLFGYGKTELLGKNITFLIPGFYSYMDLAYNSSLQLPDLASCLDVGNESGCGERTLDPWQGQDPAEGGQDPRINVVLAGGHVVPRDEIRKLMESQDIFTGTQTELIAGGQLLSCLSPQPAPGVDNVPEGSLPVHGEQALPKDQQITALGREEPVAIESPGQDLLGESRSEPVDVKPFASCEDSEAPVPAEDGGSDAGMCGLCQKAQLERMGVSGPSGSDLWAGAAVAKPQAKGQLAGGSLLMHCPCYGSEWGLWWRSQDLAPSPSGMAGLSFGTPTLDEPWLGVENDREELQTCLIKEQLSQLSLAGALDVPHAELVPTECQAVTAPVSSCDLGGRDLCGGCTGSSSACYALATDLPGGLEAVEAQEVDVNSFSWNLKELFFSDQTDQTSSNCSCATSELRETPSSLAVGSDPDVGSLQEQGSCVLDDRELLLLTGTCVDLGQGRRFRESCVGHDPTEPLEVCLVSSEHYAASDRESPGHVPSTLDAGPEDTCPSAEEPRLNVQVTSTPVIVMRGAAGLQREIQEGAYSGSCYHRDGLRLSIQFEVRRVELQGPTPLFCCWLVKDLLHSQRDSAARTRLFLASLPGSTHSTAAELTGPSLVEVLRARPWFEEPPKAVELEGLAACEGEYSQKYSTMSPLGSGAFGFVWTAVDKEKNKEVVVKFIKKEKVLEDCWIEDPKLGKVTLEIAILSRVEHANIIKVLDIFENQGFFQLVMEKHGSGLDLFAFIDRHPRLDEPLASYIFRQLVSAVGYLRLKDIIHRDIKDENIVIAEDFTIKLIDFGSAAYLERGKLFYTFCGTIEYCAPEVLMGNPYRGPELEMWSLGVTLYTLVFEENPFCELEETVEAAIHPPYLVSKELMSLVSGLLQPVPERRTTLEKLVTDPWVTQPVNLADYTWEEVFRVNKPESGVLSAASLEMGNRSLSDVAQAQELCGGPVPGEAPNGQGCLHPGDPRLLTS
Chain of UniProt Q07002 (whole entry, looked up): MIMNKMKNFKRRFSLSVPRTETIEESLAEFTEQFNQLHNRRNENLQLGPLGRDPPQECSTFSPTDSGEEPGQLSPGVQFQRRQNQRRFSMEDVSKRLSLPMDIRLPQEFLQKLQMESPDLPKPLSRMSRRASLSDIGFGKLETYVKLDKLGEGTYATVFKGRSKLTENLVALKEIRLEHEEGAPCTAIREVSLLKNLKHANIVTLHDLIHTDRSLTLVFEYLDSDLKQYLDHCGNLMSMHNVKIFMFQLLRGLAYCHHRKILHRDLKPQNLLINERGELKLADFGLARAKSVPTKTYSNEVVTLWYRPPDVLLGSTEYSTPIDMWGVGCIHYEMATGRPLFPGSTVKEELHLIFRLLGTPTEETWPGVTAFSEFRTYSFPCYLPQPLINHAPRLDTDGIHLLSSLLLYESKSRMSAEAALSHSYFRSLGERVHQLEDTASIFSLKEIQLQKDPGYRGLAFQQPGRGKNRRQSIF
Chain of UniProt Q13882 (whole entry, looked up): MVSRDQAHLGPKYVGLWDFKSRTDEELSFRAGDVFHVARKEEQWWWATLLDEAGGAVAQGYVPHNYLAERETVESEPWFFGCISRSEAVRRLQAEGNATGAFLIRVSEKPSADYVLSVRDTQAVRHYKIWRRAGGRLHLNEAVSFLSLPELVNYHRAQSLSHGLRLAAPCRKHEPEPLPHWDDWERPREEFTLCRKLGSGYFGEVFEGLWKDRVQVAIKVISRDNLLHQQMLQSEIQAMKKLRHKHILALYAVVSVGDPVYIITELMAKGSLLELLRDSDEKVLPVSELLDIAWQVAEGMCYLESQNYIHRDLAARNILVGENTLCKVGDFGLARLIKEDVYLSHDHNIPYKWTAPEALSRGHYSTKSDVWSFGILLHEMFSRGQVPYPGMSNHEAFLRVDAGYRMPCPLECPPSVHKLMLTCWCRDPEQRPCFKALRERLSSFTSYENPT
Chain of UniProt Q13554 (whole entry, looked up): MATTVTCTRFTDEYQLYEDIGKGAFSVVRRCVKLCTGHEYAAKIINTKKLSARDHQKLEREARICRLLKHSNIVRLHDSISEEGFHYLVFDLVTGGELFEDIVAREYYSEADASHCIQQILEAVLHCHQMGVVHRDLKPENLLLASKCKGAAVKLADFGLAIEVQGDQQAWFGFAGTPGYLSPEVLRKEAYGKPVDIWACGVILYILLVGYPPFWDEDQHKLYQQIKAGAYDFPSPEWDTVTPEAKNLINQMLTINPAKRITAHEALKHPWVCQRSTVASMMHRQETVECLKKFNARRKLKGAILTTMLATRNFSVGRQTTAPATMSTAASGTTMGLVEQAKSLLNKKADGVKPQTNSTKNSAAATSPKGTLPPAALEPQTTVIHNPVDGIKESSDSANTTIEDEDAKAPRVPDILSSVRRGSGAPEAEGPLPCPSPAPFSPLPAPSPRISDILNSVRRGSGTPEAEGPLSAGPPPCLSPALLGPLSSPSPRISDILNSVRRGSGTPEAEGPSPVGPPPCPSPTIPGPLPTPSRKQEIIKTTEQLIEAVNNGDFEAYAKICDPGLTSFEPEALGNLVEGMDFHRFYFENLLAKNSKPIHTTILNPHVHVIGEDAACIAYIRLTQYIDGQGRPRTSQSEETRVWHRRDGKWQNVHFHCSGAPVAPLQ
Chain of UniProt P27448 (whole entry, looked up): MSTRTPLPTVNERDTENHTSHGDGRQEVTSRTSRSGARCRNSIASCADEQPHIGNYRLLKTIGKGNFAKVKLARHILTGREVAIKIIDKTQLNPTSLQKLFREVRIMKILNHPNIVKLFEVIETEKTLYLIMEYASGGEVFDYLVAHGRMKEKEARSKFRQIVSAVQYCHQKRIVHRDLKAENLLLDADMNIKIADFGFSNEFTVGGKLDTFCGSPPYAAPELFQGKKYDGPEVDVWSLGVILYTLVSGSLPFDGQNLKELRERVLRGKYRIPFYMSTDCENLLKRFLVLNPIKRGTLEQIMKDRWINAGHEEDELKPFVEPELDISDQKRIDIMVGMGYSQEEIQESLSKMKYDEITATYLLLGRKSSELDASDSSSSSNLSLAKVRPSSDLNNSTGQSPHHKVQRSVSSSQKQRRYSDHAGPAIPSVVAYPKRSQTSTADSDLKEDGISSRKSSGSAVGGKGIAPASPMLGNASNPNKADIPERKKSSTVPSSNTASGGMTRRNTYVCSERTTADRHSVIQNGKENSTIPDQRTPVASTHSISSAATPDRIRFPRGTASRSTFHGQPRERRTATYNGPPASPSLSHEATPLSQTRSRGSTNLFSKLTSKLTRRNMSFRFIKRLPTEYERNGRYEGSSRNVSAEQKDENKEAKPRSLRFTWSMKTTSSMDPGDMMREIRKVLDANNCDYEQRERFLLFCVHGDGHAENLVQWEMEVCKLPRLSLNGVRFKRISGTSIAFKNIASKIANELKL

Block 1
SMILES: CCS(=O)(=O)c1cc2cc(C[C@@](O)(CC(C)(C)c3ccc(F)cc3C(N)=O)C(F)(F)F)[nH]c2cn1
Effect on: cell-free assay
Method: competition with immobilised ligand
Concentration: 1 µM
Endpoint: remaining binding
SNRK (Homo sapiens, UniProt Q9NRH2): 98%
RPS6KB1 (Homo sapiens, UniProt P23443): 80%
FLT3 (Homo sapiens, UniProt P36888, D835V): 79%
CDKL2 (Homo sapiens, UniProt Q92772): 90%
Tyrosine-protein kinase ABL1, phosphorylated (ABL1, Homo sapiens, UniProt P00519, H396P): 99%
EGFR (Homo sapiens, UniProt P00533, del746-750): 94%
Tyrosine-protein kinase ABL1, non-phosphorylated (ABL1, Homo sapiens, UniProt P00519, T315I): 67%
CAMK2B (Homo sapiens, UniProt Q13554): 100%
PIK3CA (Homo sapiens, UniProt P42336, Q546K): 69%
EGFR (Homo sapiens, UniProt P00533, T790M): 88%
CDK18 (Homo sapiens, UniProt Q07002): 100%
FGFR1 (Homo sapiens, UniProt P11362): 95%
Ribosomal protein S6 kinase alpha-3, N-terminal kinase domain (RPS6KA3, Homo sapiens, UniProt P51812): 100%
ULK3 (Homo sapiens, UniProt Q6PHR2): 98%
PTK6 (Homo sapiens, UniProt Q13882): 97%
EGFR (Homo sapiens, UniProt P00533, L861Q): 100%
EGFR (Homo sapiens, UniProt P00533, A750P/del747-749): 79%
MAP2K5 (Homo sapiens, UniProt Q13163): 81%
EPHA8 (Homo sapiens, UniProt P29322): 100%

Block 2
SMILES: C[S+]([O-])c1ccc(-c2nc(-c3ccncc3)c(-c3ccc(F)cc3)[nH]2)cc1 (stereo not drawn)
Effect on: enzyme activity
Action: inhibitor
Concentration: 0.5 µM
Baseline: control
Endpoint: remaining activity
ALK (Homo sapiens, UniProt Q9UM73): 105%
CDC42BPA (Homo sapiens, UniProt Q5VT25): 94.3%
Insulin receptor (INSR, Homo sapiens, UniProt P06213): 88.9%
ITK (Homo sapiens, UniProt Q08881): 97%
NEK11 (Homo sapiens, UniProt Q8NG66): 81.3%
PASK (Homo sapiens, UniProt Q96RG2): 99.1%
TAOK3 (Homo sapiens, UniProt Q9H2K8): 103%
SRC (Homo sapiens, UniProt P12931): 92.6%
PRKX (Homo sapiens, UniProt P51817): 99.3%
Cyclin-dependent kinase 3, with cyclin E (CDK3, Homo sapiens, UniProt Q00526): 94.6%
FGR (Homo sapiens, UniProt P09769): 92.7%
LIM domain kinase 1 (LIMK1, Homo sapiens, UniProt P53667): 91.3%
MARK3 (Homo sapiens, UniProt P27448): 101%
MATK (Homo sapiens, UniProt P42679): 95.6%
STK25 (Homo sapiens, UniProt O00506): 111%
AKT1 (Homo sapiens, UniProt P31749): 102%
HIPK1 (Homo sapiens, UniProt Q86Z02): 104%
NLK (Homo sapiens, UniProt Q9UBE8): 53.8%
FLT4 (Homo sapiens, UniProt P35916): 119%

Block 3
Structure (SMILES): O=C1CCC(N2Cc3cc(C4CCN(Cc5ccccc5)CC4)ccc3C2=O)C(=O)N1 (stereo not drawn)
Sample: plasma
Endpoint: Cmax
ICR mouse, male; intravenous, 1.0 mg/kg: 184 ng/mL
male ICR mice; oral, 3.0 mg/kg: 283 ng/mL
Sprague Dawley rat, male; intravenous, 1.0 mg/kg: 96.6 ng/mL
male ICR mice; intravenous, 1.0 mg/kg: 237 ng/mL and 191 ng/mL
Sprague Dawley rat, male; oral, 3.0 mg/kg: 74.4 ng/mL

Block 4
Cell line: A-375
Concentration: 100 µM
Time: 18 h
Endpoint: viability
CO[C@H]1/C=C/O[C@@]2(C)Oc3c(C)c(O)c4c(O)c(c(/C=N/N5CCN(C6CCCC6)CC5)c(O)c4c3C2=O)NC(=O)/C(C)=C\C=C\[C@H](C)[C@H](O)[C@@H](C)[C@@H](O)[C@@H](C)[C@H](OC(C)=O)[C@@H]1C: 72%
N[C@@H](Cc1c[nH]c2ccc(O)cc12)C(=O)O: 102%
O=C(Nc1c(Cl)cncc1Cl)c1ccc(OC(F)F)c(OCC2CC2)c1: 60.9%
Cc1cc(-n2c(=O)[nH]c(=O)n(C)c2=O)ccc1Oc1ccc(SC(F)(F)F)cc1: 25.6%
CC(=O)Oc1c(C)c(C)c2c(c1C)CCC(C)(CCC[C@H](C)CCC[C@H](C)CCCC(C)C)O2 (stereo partly drawn): 98.2%
CO/N=C(\C(=O)N[C@@H]1C(=O)N2C(C(=O)O)=C(CSc3nnnn3C)CS[C@H]12)c1csc(N)n1: 110%
NCCNc1ccc(NCCN)c2c1C(=O)c1ccncc1C2=O: 12.2%
CCC[C@H](N[C@@H](C)C(=O)N1[C@H](C(=O)O)C[C@@H]2CCCC[C@@H]21)C(=O)OCC: 102%

For quick reference, copied from above (block 1):
PIK3CA (Homo sapiens, UniProt P42336, Q546K): 69%
EGFR (Homo sapiens, UniProt P00533, T790M): 88%
CDK18 (Homo sapiens, UniProt Q07002): 100%
FGFR1 (Homo sapiens, UniProt P11362): 95%
Ribosomal protein S6 kinase alpha-3, N-terminal kinase domain (RPS6KA3, Homo sapiens, UniProt P51812): 100%
